Published values collected from several papers.
Every numbered part comes from another study and shows a few of its results, in no order. Positions count from the first letter of the parent shown.

Sample 1
Target: ABI1, truncated, D143A, DHFR fusion (Arabidopsis thaliana)
Method: DHFR PCA, deep sequencing
Matrix: yeast
Notes: methotrexate growth selection, single substitutions
With: (+)-ABA 2500 µM
Reference: wild-type fitted maximum
Direction: higher = stronger binding
Parent: PYL1, truncated, DHFR fusion (Arabidopsis thaliana); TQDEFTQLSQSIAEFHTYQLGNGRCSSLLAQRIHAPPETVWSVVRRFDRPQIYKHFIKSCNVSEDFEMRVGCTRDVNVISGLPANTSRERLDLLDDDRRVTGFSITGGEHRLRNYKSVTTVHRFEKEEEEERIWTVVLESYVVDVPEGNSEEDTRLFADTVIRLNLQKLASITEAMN; partner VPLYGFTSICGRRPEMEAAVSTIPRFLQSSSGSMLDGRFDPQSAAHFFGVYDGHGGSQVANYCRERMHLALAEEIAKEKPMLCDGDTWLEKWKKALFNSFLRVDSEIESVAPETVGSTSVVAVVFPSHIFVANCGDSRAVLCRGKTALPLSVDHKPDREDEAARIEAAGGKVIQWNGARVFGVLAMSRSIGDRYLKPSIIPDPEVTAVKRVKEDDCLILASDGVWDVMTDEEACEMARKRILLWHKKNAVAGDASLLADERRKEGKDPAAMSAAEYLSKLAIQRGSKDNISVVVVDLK
For `M68H`, “relative binding score” read 99.9%.
`K126F` — result for “relative binding score”: 98.1%.
Under “relative binding score”, `R98Q` is recorded as 98.3%.
For `I162M`, “relative binding score” read 78.5%.
`E151R`: “relative binding score” 95.1%.
Under “relative binding score”, `A158I` is recorded as 94.8%.
`Y141H`: “relative binding score” 27.7%.
Under “relative binding score”, `I133G` is recorded as 111%.
`N61H` — result for “relative binding score”: 87.9%.
Under “relative binding score”, `E4Q` is recorded as 94.7%.
`R98S` — result for “relative binding score”: 101%.
For `E127P`, “relative binding score” read 104%.
For `S11C`, “relative binding score” read 100%.
Under “relative binding score”, `E38G` is recorded as 96.6%.
`V118R` — result for “relative binding score”: 106%.
`A84Q`: “relative binding score” 22.6%.
`L164W` — result for “relative binding score”: 92.9%.

Sample 2
Target: Fragile X messenger ribonucleoprotein 1, C-terminal low-complexity region (Fmr1, Mus musculus, UniProt P35922)
Method: RNA Bind-n-Seq
Form: RNA
Matrix: in vitro
Concentration: 200 nM
Notes: whole 134-nt RNA, ends assumed
With: 150 mM KCl
Reference: input library
Direction: higher = stronger binding
All sequences stand within: GGGAGUUCUACAGUCCGACGAUC … UGGAAUUCUCGGGUGUCAAGG
`GCAGGAAGUAAAAACAAAUAAAAAUGCUUCGGAUAGUGGCAGGGGUGGGGGUUGCUAAGGAAAGGGUGGGAUGGGAGUGGGUAAAGAGUU` has a log2 enrichment of 0.0143.
`AGCAUGCAGGUGGGCAUCUUUGGGAAGUGGGGCAAGGGGGGGAUAGGGAGGGGGGUAACACUUUGGGAACAGGUGGUCCCAGGUCGUUUC` has a log2 enrichment of 0.728.
With `AAGUCCUGUGCUACACAUCGUAUGUACCGAAUCGGAAAGGUUUUUGGAAAAAAAGGAAAGUAUUAUGUUACGCCGUUCGGAUCUGCACUU` the log2 enrichment was -1.24.
`CAAGUCCUGUGCUACACAUCGUAUGUACCGAAUCGGGGUUUGGGUUUGGUUUGGGAAAGUAUUAUGUUACGCCGUUCGGAUCUGCACUUC` has a log2 enrichment of 0.035.
`CCUGUGCUACACAUCGUAUGUACCGAAUCGGGCCCCCCCGGCCCCCCCGGCCCCCCCGGGAAAGUAUUAUGUUACGCCGUUCGGAUCUGC` has a log2 enrichment of 0.0885.
For `ACCAUGCAGGUGGGCAUCUUUGGGAAGUGAAACAAGGGGGGGAUAGGGAGGGGGGUAACACUUUGGGAACAGGUGGUCCCAGGUCGUUUC`, the log2 enrichment was 1.2.
`UCAAGUCCUGUGCUACACAUCGUAUGUACCGAAUCGGGAAGGGAAGGGGAAGGGAAAGUAUUAUGUUACGCCGUUCGGAUCUGCACUUCC` gave a log2 enrichment of 0.755.
`CCUCAAGUCCUGUGCUACACAUCGUAUGUACCGAAUCGGGGAGGAGGGAGGGGAAAGUAUUAUGUUACGCCGUUCGGAUCUGCACUUCCA` has a log2 enrichment of 1.25.
With `UAACUUUAGAGGAGGAUCGGAUGGAUAUGGCAGUGGACGUGGAUUUGGGGAUGGCUAUAAUGGGUAUGGAGGAGGACCUGGAGGUGGCAA` the log2 enrichment was 0.346.
`AAGGCACGUAAGUUUAAGCUUUUUUUUUUUUUAAGUUAAUGGGAAAAAUUUGAGACGCAAUACCAAUACUUAGGAUUUUGGUCUUGGUGU` gave a log2 enrichment of -0.186.
`CAAGUCCUGUGCUACACAUCGUAUGUACCGAAUCGGGAGGGUUUUUGGGAAAGGGAAAGUAUUAUGUUACGCCGUUCGGAUCUGCACUUC` gave a log2 enrichment of 0.658.
With `AAGUCCUGUGCUACACAUCGUAUGUACCGAAUCGGGAGGGUUUUUUUGGGUUUGGGAAAGUAUUAUGUUACGCCGUUCGGAUCUGCACUU` the log2 enrichment was 0.598.
`GCAGGAAGUAAAAACAAAUGGAAAUGCUUCGGAUAGUGGCAGGGAUGGGGGUUGCUAAGGAAAGGGUGGGAUGGGAGUGGGUAAAGAGUU` has a log2 enrichment of 0.155.
`CCUGUGCUACACAUCGUAUGUACCGAAUCGGGGUUUUUGGGGAAAAAAAGGGGUUUGGGGAAAGUAUUAUGUUACGCCGUUCGGAUCUGC` gave a log2 enrichment of 0.35.

Sample 3
Target: HLF, bZIP domain (human)
Method: DHFR protein complementation
Matrix: yeast
Notes: single substitutions, most at no-binding floor
Reference: wild-type JUN-FOS pair
Direction: higher = stronger binding
Parent: JUN, bZIP domain (human); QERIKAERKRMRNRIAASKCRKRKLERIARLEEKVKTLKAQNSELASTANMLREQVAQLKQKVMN; partner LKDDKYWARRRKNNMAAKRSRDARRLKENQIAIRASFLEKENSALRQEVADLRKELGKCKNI
`A40Q` gave a binding fitness of -1.39 natural log.
The binding fitness of `K39M` is reported as -1.22 natural log.
For `L52I`, the binding fitness was -1.47 natural log.
`K39L` has a binding fitness of -1.36 natural log.
With `T37G` the binding fitness was -1.41 natural log.
With `A57K` the binding fitness was -1.45 natural log.
For `E33S`, the binding fitness was -1.34 natural log.
The binding fitness of `V56W` is reported as -1.5 natural log.
`R30V` has a binding fitness of -1.37 natural log.
`E32R` gave a binding fitness of -1.35 natural log.
The binding fitness of `M51N` is reported as -1.44 natural log.
`E44G` has a binding fitness of -1.4 natural log.
The binding fitness of `Q41T` is reported as -1.45 natural log.
The binding fitness of `Q55L` is reported as -1.38 natural log.
`S47D` has a binding fitness of -1.25 natural log.
For `A29T`, the binding fitness was -1.45 natural log.
For `K36S`, the binding fitness was -1.32 natural log.
For `A29I`, the binding fitness was -1.44 natural log.
The binding fitness of `T37E` is reported as -1.44 natural log.
`L45T` gave a binding fitness of -1.56 natural log.
`E44T` gave a binding fitness of -1.38 natural log.
The binding fitness of `E54G` is reported as -1.39 natural log.
`L31E` gave a binding fitness of -1.56 natural log.

Sample 4
Target: RING finger protein unkempt homolog, zinc fingers 1-6, GST-SBP tag (UNK, Homo sapiens, UniProt Q9C0B0, residues 30-357)
Chain of UniProt Q9C0B0 (30-357, looked up): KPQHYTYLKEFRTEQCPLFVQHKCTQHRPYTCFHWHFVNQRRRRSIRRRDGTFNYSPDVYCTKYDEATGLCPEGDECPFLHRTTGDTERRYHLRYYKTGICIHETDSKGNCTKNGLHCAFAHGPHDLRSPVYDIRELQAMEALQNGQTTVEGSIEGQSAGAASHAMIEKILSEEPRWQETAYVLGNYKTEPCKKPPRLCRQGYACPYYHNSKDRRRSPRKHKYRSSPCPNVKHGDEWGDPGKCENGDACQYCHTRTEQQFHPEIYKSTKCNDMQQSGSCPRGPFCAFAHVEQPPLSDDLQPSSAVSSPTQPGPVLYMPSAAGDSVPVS
Method: RNA Bind-n-Seq
Form: RNA
Matrix: in vitro
Concentration: not given
Notes: RNA with constant flanks, human and mouse sites, ends assumed
Reference: input RNA pool
Direction: higher = stronger binding
All sequences stand within: GGGAGUUCUACAGUCCGACGAUC … CAACAGAGGAUUGAGCAUCA
With `GUAAUGGACGUUAAUACUGCUUUACAAGAGGUUCUGAAGACUGCCCUCAUCCACGAUGGCCUAGCACGUGGAAUUCGCGAAGCUGCCAAAGCCUUAGACAAGCGCCAAGCCCAUCUUUGU` the bound/input enrichment was 0.185 ratio.
`AAUGACAAGGUGAAGUAUGAAGUAACAGAAGAUGUGUACACAUCCAGAAAGAAACAACACCAGACCAUGAUGCAUUAUUUUUGUGCAUUAAAUACUCUUCAGUACAAGAAGAAAAUAGCA` has a bound/input enrichment of 0.223 ratio.
`GGAGAAAAUUUUGCCUAUGUUCAAAUUAAGACAAUUUGGUCGACUAUGCUUCGUUUAUAUGAAUUUGACCUCAUCAAUGGAUAUUUUCCCACUGUGAAUUAUACAACAAUGAUCCACACC` gave a bound/input enrichment of 0.191 ratio.
The bound/input enrichment of `CGGAAAGCCACCAAGUGGGCACAGUCAGGCCUCAUCGUCAGCAUUGGGCCACCUGUAGAGUCUAUCAACCCAGAGACUGUGAGUGGACUAUCCACAGGCGACAAAAAGAAAACUGCCCAA` is reported as 0.137 ratio.
`CUUGCCCUGAACUGGUCCUCUUGUCCCAUCCUGUCCCCGCCCUGGCCCCUUUGUGCCUCCCCCUCCCUCUUUCUCUCUCCCUUUCUGGCUUGGCAAUCCCUUCUUCACCUCCAACUCCCU` gave a bound/input enrichment of 1.26 ratio.
The bound/input enrichment of `AUCUCCCGGUCCCCCGCCCGCGGCAGACAUGGCGGUGGACUCGUCUAUGGAGCUGCUAUUUUUAGAUACUUUUAAACAUCCGAGCGCUGAGCAAAGUUCUCAUAUAGAUGUGGUUCGUUU` is reported as 7.55 ratio.
`CAGGUCUAUGGAGUCGAGGUGCCUGCAGAGGGUGAGGCCGAGAAGCCUUGGUGGCAGGUAUUUAGUGAUGACCUUACCAAGCCAAUCAUUGACAAUAUUGUGUCUGAUCUCAUUCAGAUU` has a bound/input enrichment of 0.131 ratio.
For `UUGAAACAGUCAACUCGGAAAUUAACUAUAAGACUUGUUCUAUUUAUAAGUAUUUAUUUCUAAUGCCUCCACAUAGCCCUGUAAUAUUCAGAUGGAACCCCCAACCACCUCCACCCUGUU`, the bound/input enrichment was 0.869 ratio.
`AGUCUCAAUGGAGGCUAUCAAGAUGAGUUGGUAGACCACCGUUUGACAGAAAGGGAGUGGGCUGAUGAAUGGAAACACCUUGACCAUGCACUGAAUUGCAUUAUGGAAAUGGUAGAGAAA` gave a bound/input enrichment of 0.15 ratio.
For `CUAGUUUGUGUUUGUUUUUAAGAUUAAAUUAAUCCUUGAUAAAAGUUGCUUUUUUAGGGGUUAGUCUUUGACCACUAUAGUUUGAUGCCAUCUCCAUUUUGGUUGACCUGUCUCACCAUC`, the bound/input enrichment was 6.33 ratio.
With `AGGUUUCAAAGUGCAGCCAUCGGUGCCCUUCAGGAGGCUAGCGAAGCAUACCUGGUGGGGUUGUUUGAAGAUACCAAUCUGUGUGCCAUCCACGCCAAGAGAGUCACCAUCAUGCCCAAA` the bound/input enrichment was 0.137 ratio.

Sample 5
Target: CCNB1, cyclin fold, Cln2 fusion (human)
Method: yeast growth competition, sequencing
Matrix: yeast
Notes: weak parent motif
Reference: not given
Direction: higher = stronger binding
Parent: CDKN1C docking peptide (human); TSACRSLFGPVDH
For `R5K`, “normalised enrichment score” read 0.36.
Under “normalised enrichment score”, `R5A` is recorded as 0.0276.
Under “normalised enrichment score”, `C4A` is recorded as 0.199.
Under “normalised enrichment score”, `R5A L7A` is recorded as -0.274.
`V11A`: “normalised enrichment score” 0.563.
For `H13A`, “normalised enrichment score” read 0.374.
`F8L`: “normalised enrichment score” 0.392.
For `D12A`, “normalised enrichment score” read 0.674.
For `T1A`, “normalised enrichment score” read 0.543.
